Experimental data collected from several papers.
Lines come from different studies, so protocols differ. Numbers after ± are the reported error.
Organism: Plasmodium falciparum

C(=NC12CC3CC(CC(C3)C1)C2)c1cc(-c2ccc[nH]2)c[nH]1
IC50 (parasite growth; Dd2, chloroquine-resistant): > 2500 nM

C=CC1CN2CCC1CC2C(OC(=O)NCCCCCCNC(=O)OC(c1ccnc2ccc(OC)cc12)C1CC2CCN1CC2C=C)c1ccnc2ccc(OC)cc12 (stereo not shown)
IC50 (parasite growth; P31, chloroquine-resistant): 232 ± 31.1 nM

CC(C)(C)c1cc(CN(Cc2ccccn2)Cc2ccccn2)c(O)c(CN(Cc2ccccn2)Cc2ccccn2)c1
IC50 (growth, [3H]hypoxanthine incorporation; HB3 chloroquine-sensitive; 48 h): 103 ± 8 nM

COc1ccc2cc1Oc1cc3c(cc1OC)CCN(C)C3Cc1ccc(cc1)Oc1c(O)c(OC)cc3c1C(C2)N(C)CC3 (stereo not shown)
IC50 (parasite growth, SYBR green I; 3D7): 571 ± 63.8 nM

COC1=CC(c2ccc[nH]2)=NC1=CNC1CCCCCC1
IC50 (parasite growth; 7G8, chloroquine-resistant): 15 nM

S=C(Nc1ccccc1)c1cccc(C(=S)Nc2ccccc2)n1
IC50 (parasite growth, SYBR Green; DD2; 96 h, drug-resistant strain, blood stage): 146 nM

[N-]=[N+]=NCCc1cc(CN(Cc2ccccn2)Cc2ccccn2)c(O)c(CN(Cc2ccccn2)Cc2ccccn2)c1
IC50 (growth, [3H]hypoxanthine incorporation; HB3 chloroquine-sensitive; 48 h): 540 ± 91 nM

CC[C@H](C)[C@@H]1NC(=O)[C@H](CCCCN)NC(=O)[C@H](CCCCN)NC(=O)[C@H](Cc2ccc(O)cc2)NC(=O)[C@H](CC(C)C)NC(=O)[C@@H]2CCCN2C(=O)[C@H](C)NC(=O)CNC(=O)CNC(=O)[C@H](CO)NC(=O)CNC(=O)CNC(=O)[C@H](CO)NC(=O)[C@H](CCC(=O)O)NC(=O)[C@H](CC(C)C)NC(=O)[C@H](CC(C)C)NC(=O)[C@H](CCCCN)NC(=O)[C@H](CCCCN)NC(=O)[C@H]([C@@H](C)CC)NC(=O)[C@H]([C@@H](C)CC)NC(=O)[C@H](CCCCN)NC(=O)[C@H](CCCCN)NC(=O)[C@H](Cc2ccc(O)cc2)NC(=O)[C@H](CC(C)C)NC(=O)[C@@H]2CCCN2C(=O)CNC(=O)CNC(=O)[C@@H](NC(=O)CN)CSSC[C@@H](C(=O)O)NC(=O)[C@H](CC(C)C)NC(=O)[C@H](CCCCN)NC(=O)[C@H](CCCCN)NC(=O)[C@H]([C@@H](C)CC)NC1=O
IC50 (parasite growth; 3D7; 72 h, 5% serum plus Albumax II): > 67500 nM

O=C(c1ccccc1)N1CCC2(CC1)OOC1(CCCC1)OO2
IC50 (parasite growth, imaging; 3D7; 48 h, blood stage): 19.4 nM

COC(=O)[C@@H]1Cc2c([nH]c3ccccc23)[C@H](c2cccs2)N1
IC50 (parasite growth; 48 h, drug-resistant strain, blood stage): 8.66 µg/mL

CCCCNCC(O)Cn1c2ccc(Cl)cc2c2cc(Cl)ccc21 (stereo not shown)
IC50 (SYBR Green I; Dd2 chloroquine-resistant; 72 h): 91 ± 26 nM

N#Cc1c(-c2ccco2)[n+]([O-])c2ccc(C(F)(F)F)cc2[n+]1[O-]
IC50 (parasite growth, [3H]hypoxanthine incorporation; K1 chloroquine-resistant): 370 ± 120 nM

CC1=CC(c2ccc[nH]2)=NC1=CNC12CC3CC(CC(C3)C1)C2
IC50 (parasite growth; 7G8, chloroquine-resistant): 4.3 nM

COc1cc2c3cc1Oc1cc(ccc1O)CC1c4c(cc(OC)c(O)c4Oc4ccc(cc4)CC3N(C)CC2)CCN1C (stereo not shown)
IC50 (parasite growth, SYBR Green; blood stage): < 1000 nM

O=C(O)[C@@H]1Cc2c([nH]c3ccccc23)[C@@H](c2ccc(Cl)cc2F)N1
IC50 (parasite growth; Dd2; 72 h): 860 ± 80 nM

CC[C@H](C)[C@@H]1NC(=O)[C@H](CCCCN)NC(=O)[C@H](CCCCN)NC(=O)[C@H](Cc2ccc(O)cc2)NC(=O)[C@H](CC(C)C)NC(=O)[C@@H]2CCCN2C(=O)[C@H](C)NC(=O)CNC(=O)CNC(=O)[C@H](CO)NC(=O)CNC(=O)CNC(=O)[C@H](CO)NC(=O)[C@H](CCC(=O)O)NC(=O)[C@H](CC(C)C)NC(=O)[C@H](CC(C)C)NC(=O)[C@H](CCCCN)NC(=O)[C@H](CCCCN)NC(=O)[C@H]([C@@H](C)CC)NC(=O)[C@H]([C@@H](C)CC)NC(=O)[C@H](CCCCN)NC(=O)[C@H](CCCCN)NC(=O)[C@H](Cc2ccc(O)cc2)NC(=O)[C@H](CC(C)C)NC(=O)[C@@H]2CCCN2C(=O)[C@H](C)NC(=O)CNC(=O)[C@@H]2CSSC[C@H](NC(=O)[C@H](CC(C)C)NC(=O)[C@H](CCCCN)NC(=O)[C@H](CCCCN)NC(=O)[C@H]([C@@H](C)CC)NC1=O)C(=O)N[C@@H](CCC(=O)O)C(=O)N[C@@H](CC(N)=O)C(=O)NCC(=O)N2
IC50 (parasite growth; 3D7; 72 h, 5% serum plus Albumax II): ~27000 nM

COC1=CC(c2ccc[nH]2)=NC12OC(C)CC1CCCCCCCc3ccc([nH]3)C12 (stereo not shown)
IC50 (parasite growth; DD2; drug-resistant strain, blood stage): 12 nM

CC[C@H](C)[C@@H]1NC(=O)[C@H](CCCCN)NC(=O)[C@H](CCCCN)NC(=O)[C@H](Cc2ccc(O)cc2)NC(=O)[C@H](CC(C)C)NC(=O)[C@@H]2CCCN2C(=O)[C@H](C)NC(=O)CNC(=O)CNC(=O)[C@H](CO)NC(=O)CNC(=O)CNC(=O)[C@H](CO)NC(=O)[C@H](CCC(=O)O)NC(=O)[C@H](CC(C)C)NC(=O)[C@H](CC(C)C)NC(=O)[C@H](CCCNC(=N)N)NC(=O)[C@H](CCCCN)NC(=O)[C@H]([C@@H](C)CC)NC(=O)[C@H]([C@@H](C)CC)NC(=O)[C@H](CCCCN)NC(=O)[C@H](CCCCN)NC(=O)[C@H](Cc2ccc(O)cc2)NC(=O)[C@H](CC(C)C)NC(=O)[C@@H]2CCCN2C(=O)CNC(=O)CNC(=O)[C@@H](NC(=O)CN)CSSC[C@@H](C(N)=O)NC(=O)[C@H](CC(C)C)NC(=O)[C@H](CCCNC(=N)N)NC(=O)[C@H](CCCCN)NC(=O)[C@H]([C@@H](C)CC)NC1=O
IC50 (parasite growth; 3D7; 72 h, Albumax II medium, no serum): 4800 ± 100 nM

COC1=CC(c2ccc[nH]2)=NC1=CN1CCCCC1
IC50 (parasite growth; Dd2, chloroquine-resistant): > 2500 nM

NNCC1=C(O)C(=O)c2ccccc2C1=O
IC50 (parasite growth; W2; drug-resistant strain, blood stage): 11200 nM

O=C(C=CC(Cc1ccccc1)Nc1ccnc2cc(Cl)ccc12)NCCN1CCOCC1 (stereo not shown)
IC50 (parasite growth; K1; drug-resistant strain, blood stage): 282 nM

CC[C@H](C)[C@@H]1NC(=O)[C@H](CCCCN)NC(=O)[C@H](CCCCN)NC(=O)[C@H](Cc2ccc(O)cc2)NC(=O)[C@H](CC(C)C)NC(=O)[C@@H]2CCCN2C(=O)[C@H](C)NC(=O)CNC(=O)CNC(=O)[C@H](CO)NC(=O)CNC(=O)CNC(=O)[C@H](CO)NC(=O)[C@H](CCC(=O)O)NC(=O)[C@H](CC(C)C)NC(=O)[C@H](CC(C)C)NC(=O)[C@H](CCCCN)NC(=O)[C@H](CCCCN)NC(=O)[C@H](C(C)C)NC(=O)[C@H]([C@@H](C)CC)NC(=O)[C@H](CCCCN)NC(=O)[C@H](CCCCN)NC(=O)[C@H](Cc2ccc(O)cc2)NC(=O)[C@H](CC(C)C)NC(=O)[C@@H]2CCCN2C(=O)CNC(=O)CNC(=O)[C@@H](NC(=O)CN)CSSC[C@@H](C(N)=O)NC(=O)[C@H](CC(C)C)NC(=O)[C@H](CCCCN)NC(=O)[C@H](CCCCN)NC(=O)[C@H](C(C)C)NC1=O
IC50 (parasite growth; 3D7; 72 h, 5% serum plus Albumax II): ~45000 nM

CC[C@H](C)[C@@H]1NC(=O)[C@@H]2CSSC[C@H](NC(=O)[C@H](Cc3ccccc3)NC(=O)[C@@H]3CSSC[C@H](NC1=O)C(=O)N[C@@H](CC(C)C)C(=O)N[C@@H](C)C(=O)NCCCC[C@@H](NC(=O)[C@@H](Cc1ccccc1)NC(=O)[C@@H](CC(C)C)NC(=O)[C@@H]1CCCN1C(=O)[C@@H](CC(C)C)NC(=O)[C@@H](Cc1ccccc1)NC(=O)[C@@H](CCC(=O)O)NC(=O)[C@@H](C)NC(=O)[C@@H](Cc1ccccc1)NC(=O)[C@H](N)C(C)C)C(=O)N3)C(=O)N[C@@H]([C@@H](C)O)C(=O)N[C@@H](CCCNC(=N)N)C(=O)N[C@@H](CCSC)C(=O)N[C@@H](CO)C(=O)N1CCC[C@H]1C(=O)N1CCC[C@H]1C(=O)N[C@@H](CCC(N)=O)C(=O)N2
IC50 (parasite growth; 3D7; two cycles): ~52 nM

CC1=CC(c2ccc[nH]2)=NC1=CNC1CCCCCC1
IC50 (parasite growth; Dd2, chloroquine-resistant): > 250 nM

CC[C@H](C)[C@@H]1NC(=O)[C@H](CCCNC(=N)N)NC(=O)[C@H](CCCCN)NC(=O)[C@H](Cc2ccc(O)cc2)NC(=O)[C@H](CC(C)C)NC(=O)[C@@H]2CCCN2C(=O)[C@H](C)NC(=O)CNC(=O)CNC(=O)[C@H](CO)NC(=O)CNC(=O)CNC(=O)[C@H](CO)NC(=O)[C@H](CCC(=O)O)NC(=O)[C@H](CC(C)C)NC(=O)[C@H](CC(C)C)NC(=O)[C@H](CCCCN)NC(=O)[C@H](CCCCN)NC(=O)[C@H]([C@@H](C)CC)NC(=O)[C@H]([C@@H](C)CC)NC(=O)[C@H](CCCNC(=N)N)NC(=O)[C@H](CCCCN)NC(=O)[C@H](Cc2ccc(O)cc2)NC(=O)[C@H](CC(C)C)NC(=O)[C@@H]2CCCN2C(=O)CNC(=O)CNC(=O)[C@@H](NC(=O)CN)CSSC[C@@H](C(N)=O)NC(=O)[C@H](CC(C)C)NC(=O)[C@H](CCCCN)NC(=O)[C@H](CCCCN)NC(=O)[C@H]([C@@H](C)CC)NC1=O
IC50 (parasite growth; 3D7; 72 h, Albumax II medium, no serum): 4500 ± 100 nM

For quick reference, copied from above:
S=C(Nc1ccccc1)c1cccc(C(=S)Nc2ccccc2)n1
IC50 (parasite growth, SYBR Green; DD2; 96 h, drug-resistant strain, blood stage): 146 nM

C=CC1CN2CCC1CC2C(OC(=O)NCCCCCCNC(=O)OC(c1ccnc2ccc(OC)cc12)C1CC2CCN1CC2C=C)c1ccnc2ccc(OC)cc12 (stereo not shown)
IC50 (parasite growth; P31, chloroquine-resistant): 232 ± 31.1 nM

COc1ccc2cc1Oc1cc3c(cc1OC)CCN(C)C3Cc1ccc(cc1)Oc1c(O)c(OC)cc3c1C(C2)N(C)CC3 (stereo not shown)
IC50 (parasite growth, SYBR green I; 3D7): 571 ± 63.8 nM
